{"data": "Assay results gathered from unrelated publications", "target": "Macrophage-stimulating protein receptor (MST1R, Homo sapiens, UniProt Q04912)", "note": "Each line is one published result; not all experiments were run side by side. Values joined by “and” are separate records of one study, mostly repeats; a detail may differ."}
{"SMILES": "CN1CCN(Cc2ccc(-c3ccc(CO[C@H]4CCC[C@@H]4NC(=O)c4cc(-c5cnn(C)c5)cnc4N)cc3)cc2)CC1", "test": "enzyme activity, inhibitor", "conditions": "0.1 µM", "quantity": "inhibition", "result": "-11%"}
{"SMILES": "CC(C)=CC1OC(C)(C)C2C=C3C(=O)C(Cl)=CC(O)C3C3C(O)C4OC4C(=O)C132 (centres unmarked)", "test": "cell-free assay, competition with immobilised ligand", "conditions": "10 µM", "quantity": "remaining binding", "result": "95%"}
{"SMILES": "C=CC(=O)N1CCc2ccc(-n3c(=O)ccc4cnc5ccc(-c6cnn(C)c6)cc5c43)cc21", "test": "KINOMEscan", "conditions": "1 µM", "scale": "relative to: DMSO control", "quantity": "remaining binding", "result": "100%"}
{"SMILES": "CCN1CCN(Cc2ccc(C(=O)Nc3ccc(C)c(NCc4cnc5[nH]ccc5c4OC)c3)cc2C(F)(F)F)CC1", "test": "binding, competition with immobilised ligand", "conditions": "1 µM", "quantity": "remaining binding", "result": "100%"}
{"SMILES": "Cc1ccc(-c2c(/C=C(\\C#N)C(=O)NC(C)C)n(CCCO)c3ncnc(N)c23)cc1", "test": "cell-free assay, competition with immobilised ligand", "conditions": "1 µM", "quantity": "remaining binding", "result": "96%"}
{"SMILES": "Nc1ncc2c(n1)-c1c([nH]c3ccc(C4=CCOCC4)cc13)CCC2", "test": "binding, competition with immobilised ligand", "conditions": "1 µM", "quantity": "remaining binding", "result": "85%"}
{"SMILES": "C=CC(=O)Nc1cccc(-c2cnc3[nH]cc(C(=O)NC(C)(C)C)c3n2)c1", "test": "kinase activity", "conditions": "0.1 µM", "quantity": "inhibition", "result": "18% and 19%"}
{"SMILES": "Nc1ncc(-c2cc(-c3cnn(CC(F)(F)F)c3)ncc2F)nc1C(=O)NC1CNCC(F)C1 (centres unmarked)", "test": "enzyme activity", "conditions": "1 µM", "scale": "relative to: DMSO control", "quantity": "remaining activity", "result": "103%"}
{"SMILES": "O=C=[N][Ru-4]123([n]4c5ccc(O)cc5c5c6c(c7cc(F)c[n+]1c7c54)C(=O)NC6=O)[S+]1CC[S+]2CC[S+]3CC1 (centres unmarked)", "test": "enzyme activity", "conditions": "100 nM, human enzyme, added: 10 µM ATP", "scale": "relative to: untreated", "quantity": "remaining activity", "result": "108%"}
{"SMILES": "NC(=O)[C@@H](O)C[C@H]1CCc2sc3ncnc(O[C@H]4CC[C@H](N5CCOCC5)CC4)c3c21", "test": "enzyme activity, inhibitor", "conditions": "10 µM", "quantity": "inhibition", "result": "5%"}
{"SMILES": "CNC(=O)C1CCN(c2cc(C)c(F)cc2NC(=O)c2ccc(-c3cc(O)ccc3C)c(C)c2)CC1", "test": "binding, competition with immobilised ligand", "conditions": "1 µM", "quantity": "remaining binding", "result": "99%"}
{"SMILES": "COc1c(Cl)cccc1Nc1c(-c2ccncc2C#C[C@@]2(C)CCCN2C(=O)/C=C/CN(C)C)[nH]c2c1C(=O)NCC2", "test": "cell-free assay, competition with immobilised ligand", "conditions": "3 µM", "quantity": "remaining binding", "result": "99%"}
{"SMILES": "Cc1cccc(O[C@H]2CCC[C@@H](C(C)CNCc3ccncc3)C2)c1 (relative stereo)", "test": "cell-free assay", "conditions": "10 µM", "quantity": "inhibition", "result": "0%"}
{"SMILES": "CN1CC[C@@H](COc2cnc(C#N)cc2-c2ccn3nc(NC(=O)C4CC4)cc3c2)C1", "test": "enzyme activity, inhibitor", "conditions": "1 µM", "quantity": "inhibition", "result": "-8%"}
{"note": "Some of these lines once more:"}
{"SMILES": "CCN1CCN(Cc2ccc(C(=O)Nc3ccc(C)c(NCc4cnc5[nH]ccc5c4OC)c3)cc2C(F)(F)F)CC1", "test": "binding, competition with immobilised ligand", "conditions": "1 µM", "quantity": "remaining binding", "result": "100%"}
{"SMILES": "Nc1ncc2c(n1)-c1c([nH]c3ccc(C4=CCOCC4)cc13)CCC2", "test": "binding, competition with immobilised ligand", "conditions": "1 µM", "quantity": "remaining binding", "result": "85%"}
